Measurements collected from several papers.
Lines come from different studies, so protocols differ. Numbers after ± are the reported error.
Medium: plasma

CCc1c2c(nc3ccc(OC4OC(C(=O)O)C(O)C(O)C4O)cc13)-c1cc3c(c(=O)n1C2)COC(=O)C3(O)CC (centres unmarked) — Cmax (human patients; intravenous, 56 mg/m^2 of parent drug): 86 ng/mL
Cc1cc(Nc2nc(C[C@@]3(C(=O)O)CCN(Cc4cccc(Cl)c4F)[C@H](C)C3)cc(C)c2F)n[nH]1 — Cmax (BALB/c nude mice, female, NCI-H446 xenograft; oral, 10 mg/kg single): 14700 ng/mL
CC(=CCC(O)C(C)=Cc1csc(C)n1)CC=CC(C)C(O)C(C)C(=O)C(C)(C)C(O)CC(=O)O (centres unmarked) — Cmax (human; intravenous infusion, 11.3 mg/m2 KOS-1584, 3 h infusion, cycle 1): 5.85 ± 1.72 ng/mL
CSCC[C@H](NC(=O)[C@H](CO)NC(=O)[C@H](Cc1ccc(O)cc1)NC(=O)[C@@H](N)CO)C(=O)N[C@@H](CCC(=O)O)C(=O)N[C@@H](Cc1c[nH]cn1)C(=O)N[C@@H](Cc1ccccc1)C(=O)N[C@@H](CCCNC(=N)N)C(=O)N[C@@H](Cc1c[nH]c2ccccc12)C(=O)NCC(=O)N[C@@H](CCCCN)C(=O)N1CCC[C@H]1C(=O)N[C@H](C(=O)NCC(=O)N[C@@H](CCCCN)C(=O)N[C@@H](CCCCN)C(=O)N[C@@H](CCCNC(=N)N)C(=O)N[C@@H](CCCNC(=N)N)C(=O)N1CCC[C@H]1C(=O)N[C@H](C(=O)N[C@@H](CCCCN)C(=O)N[C@H](C(=O)N[C@@H](Cc1ccc(O)cc1)C(=O)N1CCC[C@H]1C(=O)N[C@@H](CC(=O)O)C(=O)NCC(=O)N[C@@H](C)C(=O)N[C@@H](CCC(=O)O)C(=O)N[C@@H](CC(=O)O)C(=O)N[C@@H](CCC(=O)O)C(=O)N[C@@H](CC(C)C)C(=O)N[C@@H](C)C(=O)N[C@@H](CCC(=O)O)C(=O)N[C@@H](C)C(=O)N[C@@H](Cc1ccccc1)C(=O)N1CCC[C@H]1C(=O)N[C@@H](CC(C)C)C(=O)N[C@@H](CCC(=O)O)C(=O)N[C@@H](Cc1ccccc1)C(=O)O)C(C)C)C(C)C)C(C)C — Cmax (healthy human subjects; subcutaneous, 80 IU three times weekly, day 1, repository corticotropin injection): 0.375 ng/mL
CCCCCCCC(=O)OC[C@H](NC(=O)[C@H](CO)NC(=O)CN)C(=O)N[C@@H](Cc1ccccc1)C(=O)N[C@@H](CC(C)C)C(=O)N[C@@H](CO)C(=O)N1CCC[C@H]1C(=O)N[C@@H](CCC(=O)O)C(=O)N[C@@H](Cc1cnc[nH]1)C(=O)N[C@@H](CCC(N)=O)C(=O)N[C@@H](CCCNC(=N)N)C(=O)N[C@H](C(=O)N[C@@H](CCC(N)=O)C(=O)N[C@@H](CCC(N)=O)C(=O)N[C@@H](CCCNC(=N)N)C(=O)N[C@@H](CCCCN)C(=O)N[C@@H](CCC(=O)O)C(=O)N[C@@H](CO)C(=O)N[C@@H](CCCCN)C(=O)N[C@@H](CCCCN)C(=O)N1CCC[C@H]1C(=O)N1CCC[C@H]1C(=O)N[C@@H](C)C(=O)N[C@@H](CCCCN)C(=O)N[C@@H](CC(C)C)C(=O)N[C@@H](CCC(N)=O)C(=O)N1CCC[C@H]1C(=O)N[C@@H](CCCNC(=N)N)C(=O)O)C(C)C — Cmax (two-site ELISA, measured: DAG; human; intravenous infusion, 1 µg/kg/h, 210 min): 1.29 ± 1.12 ng/mL
CCOC(=O)[C@@H]1Cc2c(cc([N+](=O)[O-])cc2[N+](=O)[O-])[C@H](O)[C@]12C(=O)Nc1ccc(Br)cc12 — Cmax (Sprague-Dawley rat; oral, 15 mg/kg): 5900 ng/mL
C[C@]12CC[C@H](OC(=O)NC3CCNCC3)C[C@H]1CC[C@@H]1[C@@H]2CC[C@]2(C)[C@@H](c3ccc(=O)oc3)CC[C@]12O — Cmax (male Sprague-Dawley rat; intravenous, 5 mg/kg, single dose): 5220 ng/mL
[2H]C([2H])([2H])C([2H])([2H])C([2H])([2H])OC(C(=O)OC1CCNCC1)(c1ccccc1)c1ccccc1 — Cmax (healthy Japanese male subjects; oral, 10 mg once daily, day 16, fed, mean): 112 ng/mL
